Assay results of several laboratories.
Every numbered part comes from another study and shows a few of its results, in no order.

Block 1
Target: Phosphate system positive regulatory protein PHO4, full length, GST-tagged (PHO4, Saccharomyces cerevisiae, UniProt P07270, residues 1-312)
Technique: competition protein-binding microarray
Molecule type: double-stranded DNA, one strand shown
Medium: in vitro
Tested at: 2 µM
Setting: whole 60-bp probe, lowest competitor level
Together with: Cbf1 competitor, 0.05 µM
Reading: higher = stronger binding
Measurement: fluorescence intensity
All sequences stand within: … GTCTTGATTCGCTTGACGCTGCTG
Target sequence (chain): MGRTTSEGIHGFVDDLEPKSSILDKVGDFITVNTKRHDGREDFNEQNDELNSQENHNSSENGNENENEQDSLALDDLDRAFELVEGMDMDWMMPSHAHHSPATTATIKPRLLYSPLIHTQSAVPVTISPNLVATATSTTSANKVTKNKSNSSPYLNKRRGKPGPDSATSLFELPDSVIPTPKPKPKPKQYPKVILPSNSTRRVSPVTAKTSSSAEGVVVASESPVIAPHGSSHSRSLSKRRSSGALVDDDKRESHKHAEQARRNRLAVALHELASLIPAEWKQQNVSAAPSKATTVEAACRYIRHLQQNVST
ATACACATAGAAGGACACGTGGAACTAACAGTCATT: 17400 a.u.
AATTTGGTAAGCCATCACGTGGTGAGACAGTTTTCC: 17500 a.u.
GAATCCTATGCTTCACACATGAGGACAGGTTACGAA: 6220 a.u.
CTGGTAGCCCTATCGCACGTGCCGATCTGATCAAGG: 19900 a.u.
CATTTCCATCGATGCCATGTGACAGGGTGAATCTCG: 9600 a.u.
CATACCCAACCTTGCACTGTGGGTGAAGATATTTGT: 4570 a.u.
CTCTAAATCCCGAGTCACGCATACTTTGGCAGAAAG: 7340 a.u.
TTGTGCTCGCTGGGCGGCGTGCCGATGCTTTCATCG: 7250 a.u.
CATACCCAACCTTGCTTAGTGGGTGAAGATATTTGT: 3830 a.u.
CGTCCTAGCGATTGAACTGTGGGTGCCATGAGGAAG: 5690 a.u.
TACCAAAAGTATTCATACGTGGCCGCTTGTTACCCC: 5100 a.u.
TAGTCCTACAAAACCGGCGTGGGTACATAGATTTTC: 6330 a.u.
CTGGCGTCATAATTTCACGTGTTTTAATAGCCATCC: 14100 a.u.
TAAATAACCCTGAGCCACATGTGTAAGATGCCGTAG: 12700 a.u.
TTTTAGCCCCACCTCCAGGTGATGCTTATTTGCTAG: 3880 a.u.
AAAGCGGTAATTTGCATAGTGGGTGCAGATATCTAT: 4980 a.u.
GACATCTTCAGTACCCATGTGTAATTTGGCGAATTT: 7730 a.u.
CAAACCACTATATCGCACGCACACCAGGAAAGTAAA: 9640 a.u.
GTTAATTAATCAAGCAACGTGCGGAGTTTTATCACA: 14900 a.u.
CGGGGTTAAGTTTGGTTTGTGGGTGGCTTGCAGCAG: 4360 a.u.

Block 2
Target: Histone acetyltransferase KAT6A, winged helix 1, GST fusion (KAT6A, Homo sapiens, UniProt Q92794, residues 1-85)
Technique: protein binding microarray
Molecule type: double-stranded DNA, one strand shown
Medium: in vitro
Tested at: not given
Setting: 8-mer, flanks averaged, mean of 2 arrays, mostly near background
Relative to: not given
Reading: higher = stronger binding
Measurement: E-score
Target sequence (chain): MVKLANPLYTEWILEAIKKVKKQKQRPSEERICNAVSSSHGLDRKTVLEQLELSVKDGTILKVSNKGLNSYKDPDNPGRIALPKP
AAAGACGC: 0.132
ATTGGTCC: 0.0422
ATATAATA: -0.142
AAAATTGA: -0.373
GTCAGTCA: -0.153
ATTCAGCC: 0.0249
GATTCGGA: -0.00127
CAGTTTAC: -0.0933
TCGAAGCA: -0.246
ATGCTGAG: -0.102
CGTGGCAC: -0.021
ATTCAGTC: 0.0142
AGTCCGAC: 0.0338
AAGCCCAC: -0.165
GAATTGGA: -0.152
CCCTAACC: 0.138
AGATATAC: -0.0258
CAGACTGG: -0.223
CGAATTCA: 0.00645
GGCTGTAC: 0.00641
GTAAACTA: -0.0431

Block 3
Target: RING finger protein unkempt homolog, zinc fingers 1-6, GST-SBP tag (UNK, Homo sapiens, UniProt Q9C0B0, residues 30-357)
Sequence of UniProt Q9C0B0 (30-357, looked up): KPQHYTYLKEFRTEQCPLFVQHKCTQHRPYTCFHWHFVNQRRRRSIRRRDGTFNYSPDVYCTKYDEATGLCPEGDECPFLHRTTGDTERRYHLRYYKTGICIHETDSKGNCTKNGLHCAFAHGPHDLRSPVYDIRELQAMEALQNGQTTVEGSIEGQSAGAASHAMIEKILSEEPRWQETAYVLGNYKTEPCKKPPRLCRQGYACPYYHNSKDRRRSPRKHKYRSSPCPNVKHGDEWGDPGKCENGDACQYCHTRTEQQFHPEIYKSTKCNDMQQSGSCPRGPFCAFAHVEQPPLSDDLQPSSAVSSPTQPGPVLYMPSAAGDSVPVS
Technique: RNA Bind-n-Seq
Molecule type: RNA
Medium: in vitro
Tested at: not given
Setting: RNA with constant flanks, ends assumed
Relative to: input RNA pool
Reading: higher = stronger binding
Measurement: bound/input enrichment
All sequences stand within: GGGAGUUCUACAGUCCGACGAUC … CAACAGAGGAUUGAGCAUCA
AAUCUCUGGGAACACUAUUAUAAAGAAGGCCAAGCUAUUAUUUUUGUCAUUGAUAGCCGUGACCGAUUAAGAAUGGUUGUGGCCAAAGAAGAACUCGAUACUCUUCUGAAUCAUCCAGAU: 0.104 ratio
GAAGCAAAUGUCCAUUUCCAAAGCAGCUGGCAUAUCAUCAGUACCACGGCUUUAUUCUUCUACCGUAAGUCUCCCCUCUUUACUGGGGAGAAAAAAAAUUCUCACUGGAGAAACCCUUAG: 0.991 ratio
UUGUAUUGUUGAUGAUAAGUGUUGACAUUGGGUAGUGUAGAAGCAACAAGCAUGUCCUUGCCGUACAGGUACAGUGAAGGAUAGAACACACUUUCGUUGAUACAAAAAUUUAAAUAGUUA: 0.455 ratio
UUAGAAUGUUACUUAGACCAAGUUUAGCUUUUAGAGUCCAGGUCUGGUUAAUUGCCAGGGCCGCAAAGAAUUGCAUGCACCAAUAUAAACAGGAGUCAAAAAUGCAUUAUUAAUCGAAGA: 1.65 ratio
GAGGUAGAUCAAGACCUCAUUCCACUGUUAGUGAAAGAAACGGAAGCAAGAUUUCCAGAUGCCGCAAGUGGAUAUGUUGAAGAAAUAAUUCAUUUGAAAAAUUACUAUGAUUUGAAUGUA: 0.297 ratio
CUCACGGCCCAGCAUGAAAACUUCAGGAAAAAGCAAAUUGAGGAACUGAAGGGACAGGAAGUCCGCCCUAAAGUUUACUUCAUGAAGCAGACCAUCGGAAACUCCUGUGGUACCAUCGGG: 0.143 ratio
CGGAAGAAAGAUACAAAUAAAAGCAUCAAGCAUUGCACAGUUCUCUCCAAUAAUGCCGAUCAUCUUUUACUGAACUUAACACUGUCUGAUAUCAUGGUCUCGCUGGCAAAUGCUUCAACC: 0.247 ratio
UUCGUACCAGUUAUUAAACUCUGUUUUGAUGGGAUAGAGAUUGAUAUUUUGUUUGCAAGAUCCGCACUGCAGACAAUUCCUGAAGAUUUGGAUCUACGAGAUGACAGUCUGCUAAAAAAU: 0.166 ratio
ACACAACACAAACAUAAGGAGAGACUUAGUGCUUCACCUCAGGAGGUAGGAAAGCCAUAUUCCGAGUCUUUUCAGCCCAAUUUACAUAUUACAAAAGAUGCUGCAUCUAAUGAAAUUCCA: 0.717 ratio
CGUUCUGCUAACACUAUCAAUUAUGCAUCGUGUUGAACGAAGCUUCGGGGAGGGGGAGGCCCGCAGGCGGCAGGAGGAAAAGGGUCCGGGAGAGCCAGGCAGCGCAGUUCAGCAGGUCCC: 0.245 ratio
GCUCUUGCUUAUGGAAUCUAUAAACAAGACCUUCCUGCCUUAGAAGAAAAACCAAGAAAUGCCGUUUUUGUAGAUAUGGGACAUUCUGCCUAUCAAGUUUCUGUAUGUGCAUUUAAUAAA: 0.459 ratio

Block 4
Target: RNA binding protein fox-1 homolog 2, RRM domain, GST-SBP tag (RBFOX2, Homo sapiens, UniProt O43251-10, residues 100-194)
Technique: RNA Bind-n-Seq
Molecule type: RNA
Medium: in vitro
Tested at: 365 nM
Setting: natural RNA segment, single round, ends assumed
Relative to: no-protein control
Reading: higher = stronger binding
Measurement: RBNS enrichment (R)
All sequences stand within: GGGAGUUCUACAGUCCGACGAUC … UGGAAUUCUCGGGUGCCAA
Construct (chain): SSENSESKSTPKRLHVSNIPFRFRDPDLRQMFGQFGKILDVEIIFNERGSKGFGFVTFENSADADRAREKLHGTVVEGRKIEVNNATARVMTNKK
CUGGCUUUUGCAGGCACCCUCUGACCUCAGCAGAGCUCCUGGGCCUGCUGCCUGCACACCACAUCGCCUACCUACAAUGCCAAAGCCUCACUGUCACCCUUUCUGCCUUG: 0.813
CCCCUCUGAGCCUUUUCUCCCCAGGGUAUGGCUCCUGCUGAGUUUCUUGUCCAGCAGGGCCUUGACAGGAAUCCAGGGAGUAGCUCCUGGCCAGAACCAGCCUCUGCGGG: 0.429
AGAUUGUUAGGCUCAGAUCAAGGGUGGGGAAAUACUGCCCUCUCGUGGUGGCUUUUCAUCCAGGCCUCGUAGCCAACCGUUUAAGUGCAAAAUAGAAUUAAGCAAUGGGU: 0.303
GGAGAACCUCUAGCACAGGCGGGCCCAGACCGGCUUCUCGGCUUGGAUCCUGGGCUGGGUGGCCCCUGUCUCGGGGCUUGCCCCACUCUGCCUGCCUGCUGUUGGUCCUC: 0.285
UUAUUAUAAGGGAUUUGUGAUGUCUGUAAAGUGUAACCUAGGAAAGAUAAUUCAACCAUCUAAUCAAAAUGGAUCUGGAUUACUAUGUAAAUUCACAGCAGUAAGAUAAU: 0.353
GAAAAGAGGGAGAUGUUUUGUCCAGACCUACUAGACCCAACAGAAAAGGUUUUUGUAUUAGAAUCUGUUUCCUUAAAAAUUGAUUUGACUCCUGUUCUUAAACACAAGUG: 0.291
UGCAGAUGGGAGGAGCAGUGGUGCCUCAAGUCUGCACAUGCUCUGCUUCUAGAAGACUGACUGUGGAUUAGCUUAGUGUACAGACUUUAAACAGCUGCUCCCUCAGCUCA: 0.446
GGUGGACAACUGGGGUCCCCCAAAACUCAGUCCUGGCACCUCAACUGUGACAAUCAGCAAAGCCCCACCCAGGCCCCCAUCUGGGAUGAUGGGAGAGCUCUGGCAGAUGU: 0.306
GACAUGCUGCUUCCCAUCAGCCAGAGGGGGUCAGGGCUGCCCUGUUGCCAAACAACUCCCUGAGGCCUCUCCGCACCACCUCAGCGGGCAGGAGGUCCCACCAUGUGGAC: 0.389
CCCCUCCGAGAAGGUGGCUGCGAGACAUGUCAUUCUACGGACCUGACUUGUCACAGUAGAGAUGCUGACAAACCACAUGUGGGAUUGCUAUGCUCCAAGGAUCACCUCAG: 0.366
AUUGUGAGAGAUUUGUCACCAAUCAUCACUGGUUCCUCCUUAAAAAUUAAAAAGUAACUUCUGUGUACCGAAUGAAUGUUGACUUAAAUACGGAGAGAGUGAGUCUCAAG: 0.487
CUAGAGAUUUUUUCAGAUUUAUAGACUUAAAAAAUUAGAAUUUUAUUACCAGGCUUUCCUUCUCACCCCUUUUUUCUGACUUUGCCAAGUAAUUUGUUGACACGAAAAUU: 1.13

Block 5
Target: Sal-like protein 4, full length isoform B (SALL4, Homo sapiens, UniProt Q9UJQ4-2, residues 1-616)
Technique: universal PBM
Molecule type: double-stranded DNA, one strand shown
Medium: in vitro
Tested at: not given
Setting: 8-mer, flanks averaged, mean of replicates
Reading: higher = stronger binding
Measurement: E-score
AAACGATG: 0.121
CACTGGCC: -0.181
CAGTCTAC: -0.0208
GCGCAACC: -0.309
GATCAAAC: -0.0329
AAGATAAT: 0.317
CCTAGACG: -0.211
ACTGGATA: 0.11
CCTTCCCC: -0.251
CGACTCTA: -0.172
GCAACCAA: -0.0266
CAAATTAA: 0.24
CTGTCGGC: -0.285
GAATACGC: -0.0193
AATATTGC: 0.425
ACTTGCAT: 0.108
GAGTCATA: 0.246
GAGACCCC: -0.221
ACTGTTTC: -0.0211
CCAGTTCA: -0.0588
GCAGCAAA: -0.0132
GCCTGGTA: -0.164
GCCCTCAC: -0.162
GACCTACA: 0.0483
CTAAAAAC: -0.0589

Repeated from above (block 5):
CCTAGACG: -0.211
ACTGGATA: 0.11
CCTTCCCC: -0.251
CGACTCTA: -0.172
GCAACCAA: -0.0266
CAAATTAA: 0.24
